{"data": "Published values of several laboratories", "target": "Albumin (ALB, Homo sapiens, UniProt P02768)", "note": "Compare with care: the assays were run in different laboratories."}
{"Compound": "Cc1ccc(C(C)C)cc1.[C-]#[O+].[C-]#[O+].[C-]#[O+].[Cl-].[Cl-].[Cl-].[Re+].[Ru+2].c1cnc(-c2ncccn2)nc1", "assay": "tryptophan fluorescence quenching", "quantity": "quenching rate constant", "value": "5.5e+12 M⁻¹ s⁻¹"}
{"Compound": "CCCNCC(=O)O", "assay": "circular dichroism", "conditions": "0.12 mM", "quantity": "α-helix content", "value": "41.3%"}
{"Compound": "CCCCCCCCCCCCNC(=O)[O][Pt]([Cl])([Cl])[O]C(=O)CCC(=O)O.N.N", "assay": "Trp214 fluorescence quenching", "quantity": "binding constant (Ka)", "value": "37000 M⁻¹"}
{"Compound": "O=C([O-])CN1CCN(CC(=O)[O-])CCN(CC(=O)c2ccc(-c3ccc(OCC(=O)O)cc3)cc2)CCN(CC(=O)[O-])CC1.[Gd+3]", "conditions": "25 °C, 60 MHz, added: HSA 0.6 mM", "quantity": "r1 relaxivity", "value": "11.4 mM⁻¹ s⁻¹"}
{"Compound": "CCCCCC(C)NCC(=O)O (stereo not shown)", "assay": "UV-vis absorption titration", "conditions": "pH 7.4, room temperature", "quantity": "apparent binding constant", "value": "1.02 mM⁻¹"}
{"Compound": "O=C(/C=C/c1ccc(O)c(O)c1)NCCCCCCCC[P+](c1ccccc1)(c1ccccc1)c1ccccc1", "assay": "van't Hoff analysis", "conditions": "concentration not given", "quantity": "ΔH of binding", "value": "1.04 kcal/mol"}
{"Compound": "C#CC(=O)Nc1ccc(-c2c([Si](C)(C)C)c3ccccc3c3c4ccccc4cc[n+]23)cc1", "assay": "LC-MS", "conditions": "16 h, pH 7.4, 25 °C, covalent modification of Cys34", "quantity": "conversion", "value": "59%"}
{"Compound": "O=C1Nc2cccnc2N(C2CC2)c2ncccc21", "assay": "ITC", "conditions": "concentration not given", "quantity": "binding entropy", "value": "25.5 J/(K·mol)"}
{"Compound": "C#CC(=O)Nc1ccc(-c2c([Si](C)(C)C)c3ccccc3c3ccc4ccccc4[n+]23)cc1", "assay": "LC-MS", "conditions": "16 h, pH 7.4, 25 °C, covalent modification of Cys34", "quantity": "conversion", "value": "75%"}
{"Compound": "Cc1cnc2c(c1)NC(=O)c1cccnc1N2C1CC1", "assay": "ITC", "conditions": "concentration not given, 298 K", "quantity": "binding stoichiometry", "value": 1.3}
{"Compound": "CCNC(=O)[O][Pt]([Cl])([Cl])[O]C(=O)CCC(=O)O.N.N", "assay": "Trp214 fluorescence quenching", "quantity": "binding constant (Ka)", "value": "2600 M⁻¹"}
{"Compound": "C#CC(=O)Nc1ccc(-c2c([Si](C)(C)C)c3ccccc3c3cc(-c4ccccc4)c4ccccc4[n+]23)cc1", "assay": "LC-MS", "conditions": "16 h, pH 7.4, 25 °C, covalent modification of Cys34", "quantity": "conversion", "value": "60%"}
{"Compound": "Cc1ccc(C(C)C)cc1.O=C(N=P(c1ccccc1)(c1ccccc1)c1ccccc1)c1[c-]cccc1.[Cl-].[Ru+2]", "assay": "fluorescence quenching", "conditions": "pH 7.4", "quantity": "Stern-Volmer constant", "value": "18100 M⁻¹"}
{"Compound": "Cc1c(C)c(C)[c-](C)c1C.[C-]#[O+].[C-]#[O+].[C-]#[O+].[Cl-].[Cl-].[Cl-].[Ir+3].[Re+].c1cnc(-c2ncccn2)nc1", "assay": "tryptophan fluorescence quenching", "quantity": "Stern-Volmer constant", "value": "16000 M⁻¹"}
{"Compound": "O=S([O-])c1ccccc1N=Cc1ccccc1[O-].[Cu+2].c1c[nH]cn1", "assay": "FRET", "conditions": "4 µM", "quantity": "FRET efficiency", "value": 0.35}
{"Compound": "C1=CCCC=CCC1.F[P-](F)(F)(F)(F)F.[Pt+][c]1ccccc1P(=Nc1ccccc1)(c1ccccc1)c1ccccc1", "assay": "fluorescence quenching", "conditions": "pH 7.4, added: HSA 10 µM", "quantity": "Stern-Volmer constant", "value": "3.67e+06 M^–1"}
